Experimental data collected from several papers.
Parts stem from different laboratories: compare values within a part only. Changes are numbered by the printed parent chain.

Study 1
Target: Histone acetyltransferase KAT6A, both winged helices, GST fusion (KAT6A, Homo sapiens, UniProt Q92794, residues 1-181)
Technique: protein binding microarray
Form: double-stranded DNA, one strand shown
Medium: in vitro
Concentration: not given
Notes: 8-mer, flanks averaged, mean of 2 arrays, mostly near background
Relative to: not given
Reading: higher = stronger binding
Residues (chain): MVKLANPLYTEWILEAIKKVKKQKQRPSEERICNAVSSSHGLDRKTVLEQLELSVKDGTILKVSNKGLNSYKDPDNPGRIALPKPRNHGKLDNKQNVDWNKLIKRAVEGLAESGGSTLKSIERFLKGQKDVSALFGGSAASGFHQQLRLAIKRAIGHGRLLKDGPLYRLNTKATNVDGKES
| Oligonucleotide | E-score |
| --- | --- |
| ACGATGGC | -0.108 |
| ATGGATGA | -0.145 |
| ACGCCTAG | 0.136 |
| AAAGCGGA | 0.216 |
| AACCGTCA | 0.0426 |
| AAGCGAAA | -0.132 |
| ATATGATC | 0.0395 |

Study 2
Target: ABI1, truncated, D143A, DHFR fusion (Arabidopsis thaliana)
Technique: DHFR PCA, deep sequencing
Medium: yeast
Notes: methotrexate growth selection, single substitutions
Added: (+)-ABA 0 µM
Relative to: wild-type fitted maximum
Reading: higher = stronger binding
Starting sequence: PYL1, truncated, DHFR fusion (Arabidopsis thaliana); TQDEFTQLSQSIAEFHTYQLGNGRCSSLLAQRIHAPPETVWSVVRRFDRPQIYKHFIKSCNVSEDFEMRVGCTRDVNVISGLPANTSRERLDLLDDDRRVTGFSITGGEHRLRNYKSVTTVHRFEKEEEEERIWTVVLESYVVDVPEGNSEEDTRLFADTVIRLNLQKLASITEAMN; partner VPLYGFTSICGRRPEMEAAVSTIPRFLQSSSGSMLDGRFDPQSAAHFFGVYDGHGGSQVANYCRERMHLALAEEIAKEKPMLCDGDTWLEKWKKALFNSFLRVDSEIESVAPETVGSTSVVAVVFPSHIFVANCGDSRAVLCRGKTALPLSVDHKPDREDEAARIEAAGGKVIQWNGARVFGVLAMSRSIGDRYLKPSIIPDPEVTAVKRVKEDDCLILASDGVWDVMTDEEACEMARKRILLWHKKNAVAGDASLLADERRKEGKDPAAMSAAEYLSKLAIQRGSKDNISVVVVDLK
| Change | relative binding score [%] |
| --- | --- |
| I105E | 0.578 |
| R49I | -2.36 |
| K58H | 1.72 |
| V76M | 6.98 |
| K54I | -0.328 |
| A170Y | -19.5 |

Study 3
Target: RING finger protein unkempt homolog, zinc fingers 1-6, GST-SBP tag (UNK, Homo sapiens, UniProt Q9C0B0, residues 30-357)
Sequence of UniProt Q9C0B0 (30-357, looked up): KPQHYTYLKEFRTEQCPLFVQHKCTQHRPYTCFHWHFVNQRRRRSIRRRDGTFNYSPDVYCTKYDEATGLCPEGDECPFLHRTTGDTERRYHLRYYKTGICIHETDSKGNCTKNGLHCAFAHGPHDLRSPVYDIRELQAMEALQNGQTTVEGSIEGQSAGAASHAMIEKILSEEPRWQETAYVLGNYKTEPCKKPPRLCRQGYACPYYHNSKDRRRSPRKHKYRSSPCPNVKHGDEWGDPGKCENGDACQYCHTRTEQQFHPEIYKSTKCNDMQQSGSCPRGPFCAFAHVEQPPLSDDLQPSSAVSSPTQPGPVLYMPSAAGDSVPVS
Technique: RNA Bind-n-Seq
Form: RNA
Medium: in vitro
Concentration: not given
Notes: RNA with constant flanks, ends assumed
Relative to: input RNA pool
Reading: higher = stronger binding
Constant ends, left off below: GGGAGUUCUACAGUCCGACGAUC … CAACAGAGGAUUGAGCAUCA
| Oligonucleotide | bound/input enrichment |
| --- | --- |
| CAUGCUCUUGCACUUUACAGAACUGAUGAUUACUUAGAUCAACCGUGUUAUGAAACCAUUAACCGAAUUAAACUUUACAGUGAAUCUUUGGCAAGAUAUGGCAAAAGCCCAUACCUUUAU | 0.228 ratio |
| GACCCAUAUUUCCACGAUCGUGUUGCUUCCUUCUAUGAAGGUCAGGUUGCAAUAUGGGAUCUCCGAAAAUUUGAGAAGCCAGUUUUGACAUUGACUGAGCAACCAAAACCCUUAACAAAA | 0.141 ratio |
| CACUAGGGGUUGGGAAGGGCGGCGGACGGUGCCGGGGGGAGAUUGGCCUGGCAGGCCCUUUCCGCUACCCAUUACUGGACCAGAAAGAUGACAUCUAUCAUCAAGUUAACCACCCUCUCU | 0.34 ratio |
| UUGCUAUUGUGAGAUGGAUUUUAACUGACCUAUUAAGGGUUUCUUUCGAAUGGCACUACUUCCGGGACAUUCUAGUAUUUGCUUCUAUUGUUUGGGCCUUGUGGAUAAUGUACAGAUUUA | 0.743 ratio |
| GUGUGGACAGCUGACAAAUUUAAUCCUUUGUAAUACUUUCUUUGUGACAUUUCUCUUCCCCUCCGAAACAUUGCACAUUUUAACUCUAGGCAUGGCCUCUUCUGGUGUUGACUGGACUUG | 0.385 ratio |
| ACAUGUCACGUAGAAGAGACUCUCGGUGAGCAUUGCCUGUGAACUAAUAAUCCAGUGGACAACCGGCUUUGCACCAGGGUGAGGUCCAGACCUCUGCAGCACAGAGCUCCCGAUGGUUGG | 0.364 ratio |
| GGAGAUAUUCCAGAUCUUUCACAGGCCCCCAGCAGUCUUCUUGAUGCUUUAGAACAACAUUCCGCUUCCUUGGAAGGAAAGAAAAUCAAAGAUUCCACAGCUGCAAGCAGGGCUACAACA | 0.111 ratio |
| GGAGGCUAUGGAGGCUAUGAUGAUUAUAAUGGCUAUAAUGAUGGCUAUGGAUUUGGUUCAGACCGAUUUGGAAGAGACCUCAAUUAUUGUUUUUCAGGAAUGUCUGACCACAGAUAUGGG | 0.203 ratio |

Single results of other studies
| Molecule | target | test | system | conditions | how to read | quantity | value |
| --- | --- | --- | --- | --- | --- | --- | --- |
| PhoQ, residues 284 288 289 292 302 303 NLALSC | PhoP, residues 12 14 15 18 19 NQAHL (Escherichia coli, UniProt P23836) | Sort-seq, refers to: YFP reporter | E. coli | PhoQ-PhoP variant library, added: 10 µM Mg2+ | relative to: high Mg2+ state, higher = stronger signaling | fold induction | 3.69 |

Excerpt of the above (study 2):
| Change | relative binding score [%] |
| --- | --- |
| V76M | 6.98 |
| K54I | -0.328 |
